Measurements of several laboratories.
Compare with care: the assays were run in different laboratories. Numbers after ± are the reported error.
CDK9 with cyclin T1: Cyclin-dependent kinase 9, with cyclin T1 (CDK9, Homo sapiens, UniProt P50750)
Grm2: Metabotropic glutamate receptor 2 (Grm2, Rattus norvegicus, UniProt P31421)
APP amyloid-beta peptide: Amyloid-beta precursor protein, amyloid-beta peptide (APP, Homo sapiens, UniProt P05067)
ESR1: Estrogen receptor (ESR1, Homo sapiens, UniProt P03372)

Amino acid sequences for entries named in this document (tags omitted). Residues count along the entry.
UniProt P14902, whole entry: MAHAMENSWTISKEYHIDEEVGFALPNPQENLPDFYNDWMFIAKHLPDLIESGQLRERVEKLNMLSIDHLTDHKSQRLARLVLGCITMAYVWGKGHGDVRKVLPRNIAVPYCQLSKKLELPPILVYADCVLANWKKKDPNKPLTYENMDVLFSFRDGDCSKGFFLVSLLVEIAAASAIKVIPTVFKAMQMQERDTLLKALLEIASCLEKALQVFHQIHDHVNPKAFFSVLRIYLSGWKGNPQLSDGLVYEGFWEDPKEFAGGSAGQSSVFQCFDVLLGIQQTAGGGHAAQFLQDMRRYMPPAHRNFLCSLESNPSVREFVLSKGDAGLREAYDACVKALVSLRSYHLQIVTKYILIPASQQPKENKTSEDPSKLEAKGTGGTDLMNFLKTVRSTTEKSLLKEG
UniProt P31749, whole entry: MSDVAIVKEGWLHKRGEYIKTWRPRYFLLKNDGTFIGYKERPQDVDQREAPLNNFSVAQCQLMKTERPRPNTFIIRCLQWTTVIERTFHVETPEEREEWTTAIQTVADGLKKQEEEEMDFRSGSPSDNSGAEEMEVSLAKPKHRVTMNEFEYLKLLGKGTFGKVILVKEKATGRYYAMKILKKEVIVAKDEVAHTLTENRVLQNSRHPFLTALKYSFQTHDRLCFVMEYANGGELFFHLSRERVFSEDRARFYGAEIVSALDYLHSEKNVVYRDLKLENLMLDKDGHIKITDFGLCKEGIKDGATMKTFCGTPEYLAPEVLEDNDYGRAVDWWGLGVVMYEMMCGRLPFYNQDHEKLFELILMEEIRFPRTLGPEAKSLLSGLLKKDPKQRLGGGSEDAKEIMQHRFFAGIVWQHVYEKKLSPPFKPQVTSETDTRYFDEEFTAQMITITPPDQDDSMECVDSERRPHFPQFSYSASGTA
UniProt Q96RJ0, whole entry: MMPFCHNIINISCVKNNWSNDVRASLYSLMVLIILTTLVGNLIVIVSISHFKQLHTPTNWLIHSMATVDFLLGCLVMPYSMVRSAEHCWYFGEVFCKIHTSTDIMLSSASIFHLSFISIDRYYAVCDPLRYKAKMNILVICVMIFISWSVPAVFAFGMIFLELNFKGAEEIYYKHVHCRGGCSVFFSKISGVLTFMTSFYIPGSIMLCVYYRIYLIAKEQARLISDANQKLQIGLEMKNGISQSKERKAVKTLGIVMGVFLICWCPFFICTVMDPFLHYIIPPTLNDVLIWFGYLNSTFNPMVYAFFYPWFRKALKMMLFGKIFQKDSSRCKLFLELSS
UniProt Q6P5Z2, whole entry: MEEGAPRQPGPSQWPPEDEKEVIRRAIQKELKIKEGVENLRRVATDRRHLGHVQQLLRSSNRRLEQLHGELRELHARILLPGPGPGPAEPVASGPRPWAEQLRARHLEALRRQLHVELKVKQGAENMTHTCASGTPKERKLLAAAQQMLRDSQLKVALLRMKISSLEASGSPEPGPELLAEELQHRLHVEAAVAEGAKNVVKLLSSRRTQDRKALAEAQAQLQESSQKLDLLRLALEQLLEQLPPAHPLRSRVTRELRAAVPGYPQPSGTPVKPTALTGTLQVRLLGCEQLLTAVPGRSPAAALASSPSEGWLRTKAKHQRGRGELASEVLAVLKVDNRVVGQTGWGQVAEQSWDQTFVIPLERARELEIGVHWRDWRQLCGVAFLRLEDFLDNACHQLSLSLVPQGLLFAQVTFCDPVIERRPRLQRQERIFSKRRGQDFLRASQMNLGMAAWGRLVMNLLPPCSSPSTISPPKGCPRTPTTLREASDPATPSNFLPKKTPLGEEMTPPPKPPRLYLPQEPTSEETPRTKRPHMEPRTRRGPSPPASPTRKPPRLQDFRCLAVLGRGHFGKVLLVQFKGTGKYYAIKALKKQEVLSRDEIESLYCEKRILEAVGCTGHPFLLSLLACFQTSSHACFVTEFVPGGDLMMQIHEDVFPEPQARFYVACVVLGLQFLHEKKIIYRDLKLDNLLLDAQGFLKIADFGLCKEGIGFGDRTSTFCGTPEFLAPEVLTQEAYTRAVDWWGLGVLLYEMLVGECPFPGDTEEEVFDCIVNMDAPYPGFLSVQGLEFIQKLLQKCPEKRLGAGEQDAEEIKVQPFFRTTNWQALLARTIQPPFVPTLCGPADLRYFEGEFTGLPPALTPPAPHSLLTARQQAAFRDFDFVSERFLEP
UniProt Q8N884, whole entry: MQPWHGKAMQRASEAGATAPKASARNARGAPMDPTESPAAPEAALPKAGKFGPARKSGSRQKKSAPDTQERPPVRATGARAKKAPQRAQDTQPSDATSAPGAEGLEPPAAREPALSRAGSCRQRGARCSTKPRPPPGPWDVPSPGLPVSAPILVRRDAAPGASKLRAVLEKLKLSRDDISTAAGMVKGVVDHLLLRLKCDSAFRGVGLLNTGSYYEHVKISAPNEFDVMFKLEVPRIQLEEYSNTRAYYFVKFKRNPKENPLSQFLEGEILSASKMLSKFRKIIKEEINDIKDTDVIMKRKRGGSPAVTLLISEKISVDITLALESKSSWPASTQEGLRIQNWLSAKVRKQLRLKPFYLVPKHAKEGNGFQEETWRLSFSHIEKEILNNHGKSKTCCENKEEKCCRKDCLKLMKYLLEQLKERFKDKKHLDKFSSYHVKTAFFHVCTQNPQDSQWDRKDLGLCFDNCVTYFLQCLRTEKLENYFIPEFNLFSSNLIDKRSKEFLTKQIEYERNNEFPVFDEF
UniProt P19784, whole entry: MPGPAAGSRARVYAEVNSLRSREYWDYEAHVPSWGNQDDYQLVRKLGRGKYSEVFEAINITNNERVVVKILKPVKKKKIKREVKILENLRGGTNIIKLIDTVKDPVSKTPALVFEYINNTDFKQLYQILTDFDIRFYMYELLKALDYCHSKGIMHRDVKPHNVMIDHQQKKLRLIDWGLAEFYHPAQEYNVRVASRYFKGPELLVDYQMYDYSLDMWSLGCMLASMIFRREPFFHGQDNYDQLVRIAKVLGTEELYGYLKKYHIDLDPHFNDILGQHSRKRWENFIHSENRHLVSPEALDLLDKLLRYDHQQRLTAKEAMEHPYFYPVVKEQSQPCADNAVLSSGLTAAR
UniProt P45983, 1-384 isoform 3: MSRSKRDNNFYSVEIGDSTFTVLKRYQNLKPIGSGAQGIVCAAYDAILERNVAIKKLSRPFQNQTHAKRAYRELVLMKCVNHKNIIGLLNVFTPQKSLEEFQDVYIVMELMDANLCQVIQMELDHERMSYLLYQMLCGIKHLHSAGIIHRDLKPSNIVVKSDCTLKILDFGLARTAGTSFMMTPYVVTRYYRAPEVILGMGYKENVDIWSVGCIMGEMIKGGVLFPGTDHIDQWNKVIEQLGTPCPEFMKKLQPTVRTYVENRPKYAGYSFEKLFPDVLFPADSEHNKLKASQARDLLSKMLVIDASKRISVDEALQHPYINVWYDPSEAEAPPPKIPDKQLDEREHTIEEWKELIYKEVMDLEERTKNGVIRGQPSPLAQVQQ
UniProt P00533, 25-1210 limits assumed: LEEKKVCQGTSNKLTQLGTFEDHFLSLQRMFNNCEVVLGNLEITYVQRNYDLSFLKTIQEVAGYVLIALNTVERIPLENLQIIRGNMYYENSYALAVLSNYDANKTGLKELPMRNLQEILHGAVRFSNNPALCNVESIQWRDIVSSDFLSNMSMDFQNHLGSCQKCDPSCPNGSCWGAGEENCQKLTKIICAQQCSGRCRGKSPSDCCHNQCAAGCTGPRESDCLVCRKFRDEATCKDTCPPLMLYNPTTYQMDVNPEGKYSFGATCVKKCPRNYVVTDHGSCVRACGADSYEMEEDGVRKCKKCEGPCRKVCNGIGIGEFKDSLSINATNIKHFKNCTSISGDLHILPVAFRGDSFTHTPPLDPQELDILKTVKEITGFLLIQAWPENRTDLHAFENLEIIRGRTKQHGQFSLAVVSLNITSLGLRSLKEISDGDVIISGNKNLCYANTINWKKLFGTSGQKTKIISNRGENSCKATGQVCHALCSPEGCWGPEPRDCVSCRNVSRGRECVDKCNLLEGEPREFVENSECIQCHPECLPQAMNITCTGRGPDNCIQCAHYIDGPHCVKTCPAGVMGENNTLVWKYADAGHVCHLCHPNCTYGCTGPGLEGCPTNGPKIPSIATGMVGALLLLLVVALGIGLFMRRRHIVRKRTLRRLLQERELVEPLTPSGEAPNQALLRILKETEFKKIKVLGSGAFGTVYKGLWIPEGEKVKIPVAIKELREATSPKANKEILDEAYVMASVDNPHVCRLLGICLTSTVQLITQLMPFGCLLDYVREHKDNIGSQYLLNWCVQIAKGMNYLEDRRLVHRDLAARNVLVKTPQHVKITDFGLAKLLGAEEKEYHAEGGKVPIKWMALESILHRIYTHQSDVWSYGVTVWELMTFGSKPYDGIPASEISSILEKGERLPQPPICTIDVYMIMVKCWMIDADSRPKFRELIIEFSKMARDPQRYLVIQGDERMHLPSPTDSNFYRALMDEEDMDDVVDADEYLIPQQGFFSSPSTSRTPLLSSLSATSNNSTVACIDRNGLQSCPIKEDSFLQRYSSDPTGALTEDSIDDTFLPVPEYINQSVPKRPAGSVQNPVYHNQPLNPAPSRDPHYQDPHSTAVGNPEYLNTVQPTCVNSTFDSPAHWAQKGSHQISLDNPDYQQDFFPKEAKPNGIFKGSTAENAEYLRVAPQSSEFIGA
UniProt Q99873, whole entry: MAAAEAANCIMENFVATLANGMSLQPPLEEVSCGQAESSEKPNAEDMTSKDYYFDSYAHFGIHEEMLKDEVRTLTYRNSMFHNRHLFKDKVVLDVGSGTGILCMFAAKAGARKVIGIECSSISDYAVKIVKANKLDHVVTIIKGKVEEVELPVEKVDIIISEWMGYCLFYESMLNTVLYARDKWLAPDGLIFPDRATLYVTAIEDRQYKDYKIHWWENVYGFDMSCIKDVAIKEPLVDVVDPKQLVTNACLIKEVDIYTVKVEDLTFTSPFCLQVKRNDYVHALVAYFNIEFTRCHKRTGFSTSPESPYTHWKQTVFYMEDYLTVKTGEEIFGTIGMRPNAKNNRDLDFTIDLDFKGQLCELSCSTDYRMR
UniProt Q9UM73, whole entry, looked up: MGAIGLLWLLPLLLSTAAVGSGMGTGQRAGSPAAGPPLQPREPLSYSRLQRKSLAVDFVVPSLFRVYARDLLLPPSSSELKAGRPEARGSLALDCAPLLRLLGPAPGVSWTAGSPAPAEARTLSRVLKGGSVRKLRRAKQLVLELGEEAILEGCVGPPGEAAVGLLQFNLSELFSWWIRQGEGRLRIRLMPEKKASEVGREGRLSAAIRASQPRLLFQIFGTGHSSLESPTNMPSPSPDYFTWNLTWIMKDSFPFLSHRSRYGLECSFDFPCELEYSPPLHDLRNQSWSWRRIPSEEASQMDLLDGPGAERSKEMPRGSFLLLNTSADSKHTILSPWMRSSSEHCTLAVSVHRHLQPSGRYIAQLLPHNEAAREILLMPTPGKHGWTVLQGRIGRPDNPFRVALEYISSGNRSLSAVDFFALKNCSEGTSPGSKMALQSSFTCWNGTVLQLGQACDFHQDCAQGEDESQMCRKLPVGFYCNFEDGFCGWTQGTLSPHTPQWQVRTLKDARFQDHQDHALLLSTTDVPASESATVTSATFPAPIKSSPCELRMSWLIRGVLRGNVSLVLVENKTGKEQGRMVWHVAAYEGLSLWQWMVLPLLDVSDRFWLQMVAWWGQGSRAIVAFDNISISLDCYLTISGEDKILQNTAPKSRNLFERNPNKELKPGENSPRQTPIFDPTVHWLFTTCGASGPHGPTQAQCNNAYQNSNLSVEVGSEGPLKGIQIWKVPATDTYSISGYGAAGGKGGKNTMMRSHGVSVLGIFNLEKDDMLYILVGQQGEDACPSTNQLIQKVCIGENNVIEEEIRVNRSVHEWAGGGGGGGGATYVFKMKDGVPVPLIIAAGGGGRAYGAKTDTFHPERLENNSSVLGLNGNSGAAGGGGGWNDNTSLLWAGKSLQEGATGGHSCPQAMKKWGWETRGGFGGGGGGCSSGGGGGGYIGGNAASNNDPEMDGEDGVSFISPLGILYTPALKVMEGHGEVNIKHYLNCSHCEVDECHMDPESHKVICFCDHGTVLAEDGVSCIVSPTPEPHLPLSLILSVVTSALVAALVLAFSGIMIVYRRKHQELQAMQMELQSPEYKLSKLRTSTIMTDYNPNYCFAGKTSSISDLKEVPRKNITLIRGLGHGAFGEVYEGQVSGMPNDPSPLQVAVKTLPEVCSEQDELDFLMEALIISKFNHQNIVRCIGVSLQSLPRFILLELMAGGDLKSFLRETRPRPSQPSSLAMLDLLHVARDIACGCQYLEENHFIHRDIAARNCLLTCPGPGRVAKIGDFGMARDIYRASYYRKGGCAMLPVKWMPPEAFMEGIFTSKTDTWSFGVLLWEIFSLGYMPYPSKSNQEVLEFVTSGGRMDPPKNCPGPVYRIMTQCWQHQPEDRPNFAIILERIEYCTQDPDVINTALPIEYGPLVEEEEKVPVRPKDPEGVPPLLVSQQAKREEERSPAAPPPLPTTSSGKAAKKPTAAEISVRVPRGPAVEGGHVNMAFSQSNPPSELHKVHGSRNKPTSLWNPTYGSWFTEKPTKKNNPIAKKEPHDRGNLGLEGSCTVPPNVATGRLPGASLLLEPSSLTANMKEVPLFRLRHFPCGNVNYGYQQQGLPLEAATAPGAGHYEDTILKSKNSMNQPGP

CN1CC[C@H](c2c(O)cc(O)c3c(=O)cc(-c4ccc(C(F)(F)F)cc4)oc23)[C@H](O)C1 — IC50 (CDK9 with cyclin T1; inhibitor; with cyclin T1, GST-CTD substrate): 0.0188 µM
Nc1ccccc1C(=O)N1C[C@H](O)C[C@H]1C(=O)NCc1ccc(Cl)cc1 — IC50 (von Hippel-Lindau disease tumor suppressor, with elongin B, C (VHL, Homo sapiens, UniProt P40337); binding, fluorescence polarization; 10% DMSO, together with: FAM-HIF1α peptide tracer): 38 ± 1 µM
COC(=O)[C@@H]1C(c2nc3cc(C)ccc3o2)=Cc2cc3c(cc2[C@H]1c1cc(OC)c(OC)c(OC)c1)OCO3 — IC50 (Tubulin alpha/beta heterodimer (Leishmania infantum, UniProt A0A381MCS3+A4HTR0); tubulin polymerization, inhibitor; 37 °C, together with: tubulin 1.2 mg/mL): 16.1 ± 2.1 µM
CCN(CC)C(=O)Oc1ccccc1C=C1Cc2cc(OC)c(OC)cc2C1=O — IC50 (Cocaine esterase (CES2, Homo sapiens, UniProt O00748); intracellular enzyme activity; HepG2; 1 h, together with: fluorogenic substrate 10 µM): 0.00525 µM
COc1ccc(N2CC(=O)C(c3nc(C)cs3)=C2N)c(OC)c1 — IC50 (tetrapod ancestral FSP1; enzyme activity, resazurin reduction; 100 µM resazurin, together with: 200 µM NADH): 0.081 µM
Cc1ccc(-n2nc3c(=O)[nH]nc(N)c3c2-c2oc3ccc(C)cc3c2C)cc1 — IC50 (FGFR1 (Homo sapiens, UniProt P11362); kinase activity, inhibitor, ELISA): 0.0074 ± 0.001 µM
CS(=O)(=O)Oc1cccc(/C=C/c2c[nH]c3ccc(C#N)cc23)c1 — IC50 (IDO1 (Homo sapiens, UniProt P14902); enzyme activity, inhibitor): > 50 µM
COc1cc(Nc2ncnc(-c3cccnc3Nc3cc(NC(=O)c4cccc(C(F)(F)F)c4)ccc3C)n2)cc(OC)c1OC — IC50 (ABL1 (Homo sapiens, UniProt P00519); enzyme activity; kinase domain): 0.01 ± 0.003 µM
Nc1nc2c(ncn2COCCNC(=O)c2cc3cc(Br)ccc3c(Br)c2O)c(=O)[nH]1 — IC50 (SAMHD1 (Homo sapiens, UniProt Q9Y3Z3); dNTPase activity, inhibitor, malachite green; together with: dATP and GTP): 5 ± 0.9 µM
CN1CCC[C@@H]1C(=O)N[C@@H](Cc1ccc(-c2ccccn2)cc1)B(O)O — IC50 (20S proteasome, β1 subunit (Plasmodium falciparum, UniProt Q8I0U7+Q8I6T3); enzyme activity, inhibitor; together with: Ac-nLPnLD-AMC): > 10 µM
Cc1cnccc1-c1ccc(C2(c3ccc(Cl)cc3)CCNCC2)cc1 — IC50 (AKT1 (Homo sapiens, UniProt P31749); kinase activity, inhibitor, radiometric HotSpot; together with: ATP 10 µM): 0.118 µM
O=C(CCc1ccc(O)cc1O)c1ccc(O)cc1 — IC50 (ALOX5 (Homo sapiens, UniProt P09917); enzyme activity; cell-free): > 10 µM
CC(C)C[C@H](NC(=O)c1cc(C(=O)O)cc([C@H]2CCN[C@@H]2C(=O)O)c1)C(=O)O — IC50 (kainate receptor (rat); binding, radioligand binding; rat cortical synaptosomes; together with: [3H]kainate): 66 µM
O=C(Cn1c(-c2nccs2)nc2ccccc21)Nc1ccc(Br)cc1 — IC50 (IMPDH2 (Homo sapiens, UniProt P12268); enzyme activity, inhibitor; lower bound): ≥ 40 µM
COc1ccc(-c2cc(C(F)(F)F)c(C#N)c(SCC(=O)Nc3ccc(C)cc3)n2)cc1 — IC50 (TAAR1 (Homo sapiens, UniProt Q96RJ0)): > 10 µM
Cc1c(-c2ccc3c(c2)OCCO3)cccc1N1C(=O)c2cc(CNC3CCOCC3)c(OCc3cccc(C#N)c3)cc2C1=O — IC50 (Programmed cell death 1 ligand 1, with PD-1 (CD274, Homo sapiens, UniProt Q9NZQ7); PD-1/PD-L1 binding, inhibitor, TR-FRET): 0.0504 µM
CC(=NNC(=N)N)c1ccc(NC(=O)c2c[nH]c3ccccc23)cc1 — IC50 (CHEK2 (Homo sapiens, UniProt O96017); kinase activity, inhibitor, IMAP fluorescence polarisation; 60 min): 0.00136 ± 0.00071 µM
NC(=O)c1cn(-c2ccc(F)cc2)c2ccc(CN3CCCS(=O)(=O)CC3)cc2c1=O — IC50 (Grm2; calcium mobilization, negative allosteric modulator): 0.415 µM
NC(=O)c1ccc(C(=O)NOCc2ccccc2F)cc1 — IC50 (SIRT6 (Homo sapiens, UniProt Q8N6T7); deacetylase activity, inhibitor, fluorogenic; together with: RHKK-ac-AMC): 14.8 ± 1.33 µM
COc1cc(N)c2ncccc2c1Cl — IC50 (Methionine aminopeptidase 2 (Homo sapiens, UniProt P50579); enzyme activity, inhibitor, coupled; together with: Met-Pro-pNA substrate, Mn2+ 10 µM): > 15 µM
COc1cc2ncnc(Nc3ccc(OCc4cccc(F)c4)c(Cl)c3)c2cc1OC — IC50 (PKN3 (Homo sapiens, UniProt Q6P5Z2); binding, split-luciferase): 17 µM
O=C(NO)c1cc(F)cc(F)c1F — IC50 (HDAC6 (Homo sapiens, UniProt Q9UBN7); enzyme activity, inhibitor, electrophoretic mobility shift; together with: FAM-RHKK(Ac)-NH2 1 µM): 0.542 µM
CCOc1ccc(S(=O)(=O)NC(=O)Cc2ccc(SC)cc2)cc1Br — IC50 (CGAS (Homo sapiens, UniProt Q8N884); enzyme activity, inhibitor, Kinase-Glo ATP depletion; 25 °C, 100 nM enzyme): 5.59 µM
N#Cc1cnc(Nc2nc3ccccc3o2)nc1-c1cccc(Cl)c1 — IC50 (Grm5 (Rattus norvegicus, UniProt P31424); calcium mobilization, negative allosteric modulator; together with: glutamate EC80): 2.83 ± 1.32 µM
NC(=O)c1cn(-c2ccc(F)cc2)c2ccc(CCc3ccccc3)cc2c1=O — IC50 (Grm2; calcium mobilization, negative allosteric modulator): 6.89 µM
CN1CC[C@H](c2c(O)cc(O)c3c(=O)cc(-c4ccccc4F)oc23)[C@H](O)C1 — IC50 (CDK9 with cyclin T1; ATP at Km): 0.002 µM
O=C(Nc1ccc(Cl)cc1)C(NS(=O)(=O)c1cccs1)c1cccc(F)c1 (centres unmarked) — IC50 (Uracil nucleotide/cysteinyl leukotriene receptor, long isoform (GPR17, Homo sapiens, UniProt Q13304); calcium mobilization, antagonist; 1321-N1): 14.8 ± 0.61 µM
CC(=O)Nc1cc(Nc2cc(NC3CC3)n3ncc(C#N)c3n2)ccc1N(C)CCN(C)C — IC50 (CSNK2A2 (Homo sapiens, UniProt P19784); target engagement, NanoBRET; HEK293): 0.0013 µM
Cc1cc(NC(=O)c2cccc(NC(=O)C3=CC(C)(C)CCC3=O)c2)ccc1Nc1nccc(-c2cccnc2)n1 — IC50 (MAPK8 (Homo sapiens, UniProt P45983); enzyme activity; together with: glutathione 10 mM): 0.78 ± 0.159 µM
Fc1cccc(/C=C/c2c[nH]c3ccc(F)cc23)c1 — IC50 (APP amyloid-beta peptide; Aβ42 oligomerisation, ELISA): > 20 µM
COc1ccc(NC(=O)N[C@H](Cc2ccc(C#N)cc2)C(=O)NCC2(c3ccc(O)cc3)CC2)cc1 — IC50 (FPR2 (Homo sapiens, UniProt P25090); calcium mobilization; FPR2-transfected HL-60; desensitization pretreatment, together with: WKYMVM 5 nM): 29.5 ± 2.6 µM
C=CC(=O)Nc1cccc(N(C(=O)OCc2ccc(F)cc2)c2ccnc(Nc3ccn(C)n3)n2)c1 — IC50 (EGFR (Homo sapiens, UniProt P00533); enzyme activity, inhibitor, Z'-LYTE; together with: ATP 100 µM): 0.0008 ± 0.0001 µM
Nc1ccc(Cl)cc1-c1nc2ccccc2[nH]c1=O — IC50 (Protein diaphanous homolog 1, FH2 domain (Diaph1, Mus musculus, UniProt O08808); actin assembly, inhibitor, pyrene-actin polymerization): > 50 µM
CN1CCN(Cc2ccc(NC(=O)c3cncc(C#Cc4cncc5ncccc45)c3)cc2C(F)(F)F)CC1 — IC50 (Kinesin-1 heavy chain/ Tyrosine-protein kinase receptor RET (RET/KIF5B, Homo sapiens, UniProt P07949+P33176, G810R); cell viability, inhibitor, CellTiter-Glo; Ba/F3 KIF5B-RET G810R): 0.0141 ± 0.00044 µM
Clc1ccc(C2(c3ccc(-c4ccnc5ncccc45)cc3)CCNCC2)cc1 — IC50 (LATS2 (Homo sapiens, UniProt Q9NRM7); kinase activity, inhibitor, radiometric HotSpot; together with: ATP 10 µM): > 10 µM
O=C(Nc1ccc(-c2nc3ccccc3[nH]2)cc1)c1ccco1 — IC50 (Tyrosine-protein kinase SYK, with FCER1G (SYK, Homo sapiens, UniProt P43405); protein binding, inhibitor, TR-FRET): 72.6 µM
Cc1ccc(SCC(=O)Nc2ccc3nc(SCC(=O)NCC(C)C)sc3c2)cc1 — IC50 (ESR1; reporter gene, antagonist; HEC-1 transfected ERα luciferase reporter): > 50 µM
COc1ccc(CNc2c(C(=O)O)ccnc2C(=O)O)cc1 — IC50 (KDM4E (Homo sapiens, UniProt B2RXH2); inhibitor, FDH-coupled spectrophotometry, item: formaldehyde): 41 µM
Oc1cccc(/C=C/c2c[nH]c3ccc(F)cc23)c1 — IC50 (APP amyloid-beta peptide; Aβ42 oligomerisation, ELISA): > 20 µM
Cc1ccccc1SCC(=O)Nc1ccc2nc(SCC(=O)NCC(C)C)sc2c1 — IC50 (ESR1; reporter gene, antagonist; HEC-1 transfected ERα luciferase reporter): > 50 µM
C/C=C/c1cc(-c2nn(-c3nc(C(=O)O)cs3)c(CC3CC3)c2Cc2ccc(S(N)(=O)=O)c(F)c2)ccc1F — IC50 (LDHA (Homo sapiens, UniProt P00338); enzyme activity, inhibitor): 0.008 µM
CC(=O)N(CC#Cc1cccc(C(N)=O)c1)C[C@H]1C[C@@H](n2ccc3c(Cl)ncnc32)[C@H](O)[C@@H]1O — IC50 (PRMT1 (Homo sapiens, UniProt Q99873); enzyme activity, inhibitor, SAHH-coupled fluorescence): > 100 µM
Cc1ccccc1C(=O)Nc1ccc(-c2nc3ccccc3[nH]2)cc1 — IC50 (Moesin, with CD44 (Homo sapiens, UniProt P26038); MSN-CD44 interaction, inhibitor, TR-FRET; together with: CD44): > 100 µM
c1cc(-c2nc(-c3ccc4c(c3)OCCCO4)cs2)ccc1-c1csnn1 — IC50 (ALK (Homo sapiens, UniProt Q9UM73); ELISA): 31 µM

Excerpt of the above:
Nc1nc2c(ncn2COCCNC(=O)c2cc3cc(Br)ccc3c(Br)c2O)c(=O)[nH]1 — IC50 (SAMHD1 (Homo sapiens, UniProt Q9Y3Z3); dNTPase activity, inhibitor, malachite green; together with: dATP and GTP): 5 ± 0.9 µM
Cc1cnccc1-c1ccc(C2(c3ccc(Cl)cc3)CCNCC2)cc1 — IC50 (AKT1 (Homo sapiens, UniProt P31749); kinase activity, inhibitor, radiometric HotSpot; together with: ATP 10 µM): 0.118 µM
O=C(Cn1c(-c2nccs2)nc2ccccc21)Nc1ccc(Br)cc1 — IC50 (IMPDH2 (Homo sapiens, UniProt P12268); enzyme activity, inhibitor; lower bound): ≥ 40 µM
COc1ccc(N2CC(=O)C(c3nc(C)cs3)=C2N)c(OC)c1 — IC50 (tetrapod ancestral FSP1; enzyme activity, resazurin reduction; 100 µM resazurin, together with: 200 µM NADH): 0.081 µM
CC(=NNC(=N)N)c1ccc(NC(=O)c2c[nH]c3ccccc23)cc1 — IC50 (CHEK2 (Homo sapiens, UniProt O96017); kinase activity, inhibitor, IMAP fluorescence polarisation; 60 min): 0.00136 ± 0.00071 µM
Fc1cccc(/C=C/c2c[nH]c3ccc(F)cc23)c1 — IC50 (APP amyloid-beta peptide; Aβ42 oligomerisation, ELISA): > 20 µM
